Results pooled from the literature.
Protocols differ between the studies behind these lines.
B1: erenumab; V domains shown; sequence looked up; VH QVQLVESGGGVVQPGRSLRLSCAASGFTFSSFGMHWVRQAPGKGLEWVAVISFDGSIKYSVDSVKGRFTISRDNSKNTLFLQMNSLRAEDTAVYYCARDRLNYYDSSGYYHYKYYGMAVWGQGTTVTVSS; VL QSVLTQPPSVSAAPGQKVTISCSGSSSNIGNNYVSWYQQLPGTAPKLLIYDNNKRPSGIPDRFSGSKSGTSTTLGITGLQTGDEADYYCGTWDSRLSAVVFGGGTKLTVL
B2: TIMP3 24-144 (Homo sapiens, UniProt P35625); sequence looked up; chain CTCSPSHPQDAFCNSDIVIRAKVVGKKLVKEGPFGTLVYTIKQMKMYRGFTKMPHVQYIHTEASESLCGLKLEVNKYQYLLTGRVYDGKMYTGLCNFVERWDQLTLSQRKGLNYRYHLGCN
Chain of UniProt Q96SB4 (whole entry, looked up): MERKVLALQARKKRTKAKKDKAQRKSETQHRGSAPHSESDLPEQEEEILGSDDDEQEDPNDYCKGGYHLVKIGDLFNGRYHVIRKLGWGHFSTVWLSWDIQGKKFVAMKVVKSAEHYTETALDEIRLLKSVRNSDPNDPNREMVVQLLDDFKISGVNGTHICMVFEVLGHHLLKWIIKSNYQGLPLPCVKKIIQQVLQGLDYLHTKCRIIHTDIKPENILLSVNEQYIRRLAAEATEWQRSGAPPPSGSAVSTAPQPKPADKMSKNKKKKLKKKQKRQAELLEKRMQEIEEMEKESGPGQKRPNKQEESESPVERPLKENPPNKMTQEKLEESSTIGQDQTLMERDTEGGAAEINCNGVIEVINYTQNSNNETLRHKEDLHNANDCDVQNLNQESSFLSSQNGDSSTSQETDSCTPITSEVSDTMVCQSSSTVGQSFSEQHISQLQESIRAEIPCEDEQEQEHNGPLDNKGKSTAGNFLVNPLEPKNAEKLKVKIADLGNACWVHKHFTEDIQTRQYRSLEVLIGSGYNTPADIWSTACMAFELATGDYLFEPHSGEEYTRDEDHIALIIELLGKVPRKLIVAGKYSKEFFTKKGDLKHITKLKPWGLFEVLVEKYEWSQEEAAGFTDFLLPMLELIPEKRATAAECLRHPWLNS
Chain of UniProt P21730 (whole entry, looked up): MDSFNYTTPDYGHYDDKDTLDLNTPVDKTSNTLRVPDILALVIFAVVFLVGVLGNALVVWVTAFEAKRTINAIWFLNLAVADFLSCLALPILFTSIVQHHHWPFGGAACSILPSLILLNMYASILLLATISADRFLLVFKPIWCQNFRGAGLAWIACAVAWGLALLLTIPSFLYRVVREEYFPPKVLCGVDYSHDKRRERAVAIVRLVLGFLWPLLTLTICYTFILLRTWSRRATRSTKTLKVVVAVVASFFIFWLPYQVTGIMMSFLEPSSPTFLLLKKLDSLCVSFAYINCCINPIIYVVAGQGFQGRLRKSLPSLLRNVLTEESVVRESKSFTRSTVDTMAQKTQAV
Chain of UniProt P07949 (whole entry, looked up): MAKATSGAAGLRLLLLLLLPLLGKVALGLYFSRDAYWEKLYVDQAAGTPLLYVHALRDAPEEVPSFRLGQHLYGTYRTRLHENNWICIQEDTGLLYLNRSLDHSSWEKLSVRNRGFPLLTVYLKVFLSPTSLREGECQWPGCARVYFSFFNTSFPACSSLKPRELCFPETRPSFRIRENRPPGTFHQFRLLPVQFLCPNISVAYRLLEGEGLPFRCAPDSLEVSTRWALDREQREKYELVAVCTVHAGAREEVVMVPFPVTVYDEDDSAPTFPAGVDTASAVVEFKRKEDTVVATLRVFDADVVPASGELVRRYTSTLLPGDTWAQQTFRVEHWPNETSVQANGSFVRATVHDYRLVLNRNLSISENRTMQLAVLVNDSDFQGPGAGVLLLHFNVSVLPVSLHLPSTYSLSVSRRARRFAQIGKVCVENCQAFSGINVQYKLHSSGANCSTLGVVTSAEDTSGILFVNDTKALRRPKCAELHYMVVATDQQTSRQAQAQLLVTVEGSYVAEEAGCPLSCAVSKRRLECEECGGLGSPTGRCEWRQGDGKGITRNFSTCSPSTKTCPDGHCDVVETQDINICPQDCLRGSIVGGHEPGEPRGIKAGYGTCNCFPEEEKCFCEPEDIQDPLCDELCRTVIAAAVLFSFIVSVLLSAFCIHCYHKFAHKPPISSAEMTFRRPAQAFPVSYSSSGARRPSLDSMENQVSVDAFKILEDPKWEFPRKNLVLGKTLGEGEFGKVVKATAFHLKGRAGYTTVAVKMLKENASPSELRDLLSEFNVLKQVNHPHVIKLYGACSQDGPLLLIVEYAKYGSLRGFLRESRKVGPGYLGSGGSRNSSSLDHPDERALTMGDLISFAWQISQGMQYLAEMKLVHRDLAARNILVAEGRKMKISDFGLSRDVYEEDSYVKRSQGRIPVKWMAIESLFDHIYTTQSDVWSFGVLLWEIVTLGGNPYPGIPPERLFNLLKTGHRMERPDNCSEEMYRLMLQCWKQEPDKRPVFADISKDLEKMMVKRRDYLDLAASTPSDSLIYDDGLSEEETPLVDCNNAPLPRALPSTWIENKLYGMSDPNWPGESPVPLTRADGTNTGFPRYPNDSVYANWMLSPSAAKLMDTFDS
Chain of UniProt Q61851 (whole entry, looked up): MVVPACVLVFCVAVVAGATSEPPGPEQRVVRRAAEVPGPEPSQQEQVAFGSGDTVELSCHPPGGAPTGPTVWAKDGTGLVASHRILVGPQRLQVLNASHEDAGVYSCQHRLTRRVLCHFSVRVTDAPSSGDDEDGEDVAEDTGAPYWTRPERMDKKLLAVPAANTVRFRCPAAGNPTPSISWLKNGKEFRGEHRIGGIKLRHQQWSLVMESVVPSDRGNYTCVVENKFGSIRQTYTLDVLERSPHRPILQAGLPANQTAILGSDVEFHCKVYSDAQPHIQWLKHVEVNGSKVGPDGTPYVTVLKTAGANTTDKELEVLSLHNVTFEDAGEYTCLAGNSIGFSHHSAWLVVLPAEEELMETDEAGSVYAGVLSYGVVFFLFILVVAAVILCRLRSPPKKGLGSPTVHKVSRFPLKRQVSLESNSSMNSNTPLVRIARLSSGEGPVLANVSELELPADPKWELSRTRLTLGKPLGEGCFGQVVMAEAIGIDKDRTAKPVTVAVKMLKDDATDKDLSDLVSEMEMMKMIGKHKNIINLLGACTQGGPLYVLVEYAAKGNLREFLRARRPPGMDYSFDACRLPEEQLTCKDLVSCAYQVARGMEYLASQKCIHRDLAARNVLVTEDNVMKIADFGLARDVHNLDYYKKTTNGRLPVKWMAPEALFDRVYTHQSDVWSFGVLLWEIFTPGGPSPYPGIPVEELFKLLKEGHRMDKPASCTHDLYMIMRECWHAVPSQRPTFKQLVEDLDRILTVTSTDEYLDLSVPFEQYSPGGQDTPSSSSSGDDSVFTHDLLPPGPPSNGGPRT
Chain of UniProt Q9UNA0 (whole entry, looked up): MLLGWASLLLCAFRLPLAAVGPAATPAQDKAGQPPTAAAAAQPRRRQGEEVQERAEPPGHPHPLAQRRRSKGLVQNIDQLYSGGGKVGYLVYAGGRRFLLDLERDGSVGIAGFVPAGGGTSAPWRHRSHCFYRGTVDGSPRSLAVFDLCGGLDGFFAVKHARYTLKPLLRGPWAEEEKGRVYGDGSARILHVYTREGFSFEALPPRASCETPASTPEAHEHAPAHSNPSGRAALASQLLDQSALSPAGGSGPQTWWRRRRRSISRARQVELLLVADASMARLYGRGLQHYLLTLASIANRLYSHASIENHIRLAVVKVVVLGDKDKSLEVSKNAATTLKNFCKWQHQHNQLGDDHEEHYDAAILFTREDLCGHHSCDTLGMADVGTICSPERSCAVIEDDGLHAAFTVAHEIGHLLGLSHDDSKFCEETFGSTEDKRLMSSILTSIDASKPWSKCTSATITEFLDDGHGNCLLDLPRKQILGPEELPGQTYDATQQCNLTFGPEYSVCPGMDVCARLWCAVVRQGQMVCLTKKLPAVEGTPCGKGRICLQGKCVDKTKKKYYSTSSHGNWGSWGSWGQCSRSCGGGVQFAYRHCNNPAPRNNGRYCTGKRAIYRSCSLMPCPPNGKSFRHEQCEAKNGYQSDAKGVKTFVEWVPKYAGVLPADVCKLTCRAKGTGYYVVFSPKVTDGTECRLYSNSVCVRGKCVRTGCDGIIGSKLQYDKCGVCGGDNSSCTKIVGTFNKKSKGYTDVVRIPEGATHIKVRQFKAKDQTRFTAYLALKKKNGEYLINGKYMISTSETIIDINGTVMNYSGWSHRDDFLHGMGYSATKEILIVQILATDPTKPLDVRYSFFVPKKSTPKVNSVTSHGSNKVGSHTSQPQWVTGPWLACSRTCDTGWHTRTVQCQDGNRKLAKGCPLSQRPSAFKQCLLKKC
Chain of UniProt O60656 (whole entry, looked up): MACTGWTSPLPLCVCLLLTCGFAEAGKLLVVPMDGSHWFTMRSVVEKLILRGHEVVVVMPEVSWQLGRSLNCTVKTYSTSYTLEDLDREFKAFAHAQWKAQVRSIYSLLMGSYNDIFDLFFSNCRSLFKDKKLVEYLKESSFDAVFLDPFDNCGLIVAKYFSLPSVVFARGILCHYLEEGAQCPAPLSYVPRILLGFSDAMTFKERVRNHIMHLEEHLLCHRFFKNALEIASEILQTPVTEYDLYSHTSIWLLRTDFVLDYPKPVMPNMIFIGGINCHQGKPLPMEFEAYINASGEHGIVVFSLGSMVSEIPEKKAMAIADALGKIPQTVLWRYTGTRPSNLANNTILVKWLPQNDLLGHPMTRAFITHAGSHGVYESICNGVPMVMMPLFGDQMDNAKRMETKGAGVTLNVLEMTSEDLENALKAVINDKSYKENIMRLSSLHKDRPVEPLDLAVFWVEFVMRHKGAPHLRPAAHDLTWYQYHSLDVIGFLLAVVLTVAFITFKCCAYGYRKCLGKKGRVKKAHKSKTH
Chain of UniProt P09038 (whole entry, looked up): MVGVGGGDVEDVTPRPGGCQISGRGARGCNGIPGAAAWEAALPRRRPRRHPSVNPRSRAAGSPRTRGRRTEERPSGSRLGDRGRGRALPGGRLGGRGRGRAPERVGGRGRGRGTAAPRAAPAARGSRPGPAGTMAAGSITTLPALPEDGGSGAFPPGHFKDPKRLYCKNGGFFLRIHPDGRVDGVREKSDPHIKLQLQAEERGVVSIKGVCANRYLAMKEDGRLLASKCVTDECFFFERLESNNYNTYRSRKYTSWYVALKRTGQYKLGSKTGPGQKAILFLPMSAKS

Molecule	tested on	test	test system	conditions	scale	quantity	result
ACTA1 filaments (Oryctolagus cuniculus, UniProt P68135)	MYO1A/calmodulin (Gallus gallus)	MgATPase activation, steady-state kinetics	–	added: EGTA	–	Km of actin	40 µM
JUN (Homo sapiens, UniProt P05412)	CDK3 (Homo sapiens, UniProt Q00526)	reporter gene, two-hybrid	HEK293	–	relative to: control with pG5-Luc and Cdk3, higher = more interaction	luciferase activity	15 fold
C5a (Homo sapiens, UniProt P01031)	C5AR1 (Homo sapiens, UniProt P21730)	flow cytometry	granulocytes, whole blood	210 nM, added: TRAP 10 µM	relative to: TRAP alone, higher = more aggregates	platelet-granulocyte aggregates	1.5 fold
NRTN fragment E135S/R139S (Homo sapiens)	RET 29-635 (Homo sapiens, UniProt P07949)	MAPK signaling, SRE luciferase reporter, agonist	TGW neuroblastoma	–	–	EC50	3.2 ng/mL
FGF2 (Homo sapiens, UniProt P09038)	FGFR3 isoform IIIc (unknown, UniProt Q61851)	cell proliferation, MTT	BaF3-FGFR3c	20 nM, 48 h, added: completely desulfated heparin 4.9 µg/mL	relative to: FGF 1 with heparin, higher = more proliferation	cell proliferation	14%
SRSF1 E143A/D146A/D151A (Homo sapiens)	SRPK1 (Homo sapiens, UniProt Q96SB4)	steady-state kinetics	–	–	relative to: wild-type SRSF1, higher = larger decrease	kcat/Km	10 fold
Rigi fragment (Mus musculus)	Trim25 440-630 W621A (Mus musculus, UniProt Q61510)	IFNβ reporter	HEK-293T	–	relative to: wild type TRIM25, higher = greater loss of enhancement	reduction of IFNβ induction	31 % reduction
B1 (erenumab)	CALCR/RAMP1 on cells (Homo sapiens)	cAMP production, antagonist, global Gaddum-Schild	antibody, HEK293S	added: αCGRP	–	pKB	7.04
UGT1A9 (Homo sapiens, UniProt O60656)	COc1cccc(-c2oc3ccccc3c(=O)c2O)c1OC	steady-state kinetics	–	pH 7.4, 37 °C	–	Vmax	0.0044 µmol/min/mg
UBQLN1 fragment (Homo sapiens)	PSEN1 loop region (Homo sapiens)	beta-galactosidase, two-hybrid	–	–	relative to: PS2 °C-terminal bait, higher = stronger interaction	interaction strength	2 fold
TPDYLMQLMNDKKLMSSLPNFSGIFNHLERALDEEISRVRKDMYNDTLNGSTEK (Qki 14-67 C35S/L44A (Mus musculus, UniProt Q9QYS9))	itself	CD thermal melting	–	50 µM	–	melting temperature	37 °C
INS mature A and B chains, PEG 5000 on A1 and B29 (Homo sapiens)	Insr (Mus musculus, UniProt P15208)	AKT Ser473 phosphorylation, agonist, HTRF	C2C12	30 min	–	EC50	3.4 µM
B2 (TIMP3 24-144)	ADAMTS5 262-566 (Homo sapiens, UniProt Q9UNA0)	inhibitor, steady-state kinetics	–	1 h, pH 7.5, 37 °C	–	Ki	0.00101 µM

Excerpt of the above:
Molecule	tested on	test	test system	conditions	scale	quantity	result
UGT1A9 (Homo sapiens, UniProt O60656)	COc1cccc(-c2oc3ccccc3c(=O)c2O)c1OC	steady-state kinetics	–	pH 7.4, 37 °C	–	Vmax	0.0044 µmol/min/mg
UBQLN1 fragment (Homo sapiens)	PSEN1 loop region (Homo sapiens)	beta-galactosidase, two-hybrid	–	–	relative to: PS2 °C-terminal bait, higher = stronger interaction	interaction strength	2 fold
